Experimental data pooled from the literature.
Compare with care: the assays were run in different laboratories. Values joined by “and” are separate records of one study, mostly repeats; a detail may differ. ± marks the error that the study gave. In brackets after ≈: the same amount, converted by molar mass.

SMILES | target or system | assay | system | setting | how to read | endpoint | value
CC(=O)NCCCN(C)CCCNc1cccc2c1C(=O)c1cccc(NCCCN(C)CCCNC(C)=O)c1C2=O | SAS | RNA-Seq, item: DKK1 mRNA | – | 1 µM, 6 h | baseline: untreated cells | log2 fold change | -0.314
CCCCCCc1cccc([C@H](O)C[C@H](CO)NC(=O)CCCCCCCCCCBr)c1 | HeLa | CERT activity, HPLC-MS/MS lipidomics, item: sphingomyelin 22 | – | 1 µM, 24 h, not cell-number normalised | – | sphingomyelin level | 32500 pmol/sample and 49000 pmol/sample
Nc1cc2cccnc2c2ncccc12.[Cl-].[Cl-].[Ru+2].c1cnc2c(c1)ccc1cccnc12.c1cnc2c(c1)ccc1cccnc12 | PC-3 | – | – | 10 µM, 24 h preincubation, 30 min irradiation | baseline: untreated irradiated cells | trypsin resistance improvement | ~40%
CC(=O)Oc1ccccc1C(=O)[Se]CC(=O)Nc1cccc(C(F)(F)F)c1 | NCI60 CNS cancer panel | five-dose screen | – | – | – | GI50 | 2.2 µM
Cc1cc(Cl)cc(-c2ccnc3cc(CN4C(=O)C5C(C4=O)C5(C)C)sc23)c1C[C@@H]1CNCCO1 (stereo partly shown) | CHP-212 parental | PI flow cytometry | – | 1 µM, 24 h | – | G1 phase cells | 73.5%
CO[C@@H]1[C@@H](OC(=O)c2ccc(C)[nH]2)[C@@H](O)[C@H](Oc2ccc3c(O)c(NC(=O)c4c[nH]c(C(=O)Nc5c(O)c6ccc(O[C@@H]7OC(C)(C)[C@H](OC)[C@@H](OC(=O)c8ccc(C)[nH]8)[C@H]7O)c(C)c6oc5=O)c4C)c(=O)oc3c2C)OC1(C)C | HaCaT Tet-On cells, doxycycline-induced | – | – | 7.5 µM | – | cell number | 18%
Cn1ncc2cc(-c3cncc(Cl)c3N3CCC4(CCNC4=O)CC3)ccc21 | LS174T | gene expression, microarray, item: ACTG2 mRNA | – | concentration not given, 4 h | baseline: untreated cells | log2 fold change | 2.75
CNS(=O)(=O)Nc1nccc(Cc2c(C)c3ccc(Oc4ncccc4F)cc3oc2=O)c1F | NCI-H441 | cell viability | – | 7 days | – | IC50 | 0.00231 µM
CN1CCCNC(=O)c2cccc(c2)C(=O)NCCCN(C)CCCNc2cccc3c2C(=O)c2cccc(c2C3=O)NCCC1 | SAS | RNA-Seq, item: ZNRF2 mRNA | – | 1 µM, 6 h | baseline: untreated cells | log2 fold change | -0.943
COc1ccc2c(c1)C(n1nnc3ccccc31)C1=C(CCCC1=O)O2 (stereo not shown) | 3T3-L1 | cell growth or viability, MTT | – | 72 h | – | IC20 | 24.7 µg/mL (≈ 71.1 µM)
CCOc1cncc(-c2ccc(NC(=O)C3(c4ccnc(NS(=O)(=O)C5CC5)n4)CCOCC3)nc2)n1 | MOLP-2 | cell growth or viability, ATP luminescence | – | 72 h | – | IC50 | 0.068 µM
COc1cc([C@@H]2O[C@@H](c3cc(OC)c(O[C@@H]4O[C@H](CO)[C@@H](O)[C@H](O)[C@H]4O)c(OC)c3)[C@H](CO)[C@H]2CO)cc(OC)c1O | 3T3-L1 | lipid accumulation, Oil Red O staining | – | 5 µM, 48 h, early differentiation | – | inhibition | 43.4 ± 2.48%
COC(=O)[C@@]1(C)C=C(C(=O)Nc2cccc(C(=O)Nc3ccc(Nc4nccc(-c5cccnc5)n4)c(C)c3)c2)C(=O)CC1 | HEK293 AP1 reporter cells | AP-1 reporter gene, inhibitor | – | 10 µM, 6 h, unit not given, added: PMA | baseline: PMA alone | reporter activity | 0.0374 and 0.0509
[Cl-].[Cl-].[Ru+2].c1ccc(-c2ccccn2)nc1.c1ccc(-c2ccccn2)nc1.c1ccc2cc3nc4c5cccnc5c5ncccc5c4nc3cc2c1 | SK-MEL-28 | cell growth, SRB | – | green light 523 nm, normoxia | – | TGI | 0.649 µM
C=C1C(=O)OC2C1CCC(C)(O)C13C=CC(C)(C21)C1(C3)C(=O)OC2C3C(C)C(=O)CC3C(=C)CC(OC(C)=O)C21 (stereo not shown) | AML12 | – | – | concentration not given, concentration-dependent, added: palmitate/oleate | – | triglyceride content | decreased
COc1cc(N2CCOCC2)ccc1Nc1ncc(Cl)c(Nc2ccccc2NS(C)(=O)=O)n1 | PC-9 del19/T790M/C797S | scratch wound healing | – | above 0.3 µM, 18 h | baseline: control | migration distance | decreased
CC(C)c1ccc(N(C)c2ccc3c(c2)OCC[C@H]3CNc2cnccc2C(=O)O)cc1 | MM1.S | cell proliferation | – | 168 h | – | IC50 | 0.009 µM
COc1cc(N2CCN(C(=O)C3CCCN3)CC2)ccc1Nc1ncc(Cl)c(Nc2ccccc2P(C)(C)=O)n1 (stereo not shown) | Ba/F3 EML4-ALK | flow cytometry | – | concentration not given, 6 h | – | early apoptotic cells | 4.64% and 4.41% and 4.53%
CN(C)CCNc1ccc(-c2nn(C)c(=O)c3ccccc23)cc1[N+](=O)[O-] | Trypanosoma cruzi | reporter mRNA translation, inhibitor, item: capped polyadenylated Renilla luciferase mRNA | cell-free extract | concentration not given | baseline: positive over negative control | translation activity | 107% and 75.3% and 98.5% and 102%

SMILES | target or system | assay | system | setting | how to read | endpoint | value
C=C1C(=O)OC2C1CCC(C)(O)C13C=CC(C)(C21)C1(C3)C(=O)OC2C3C(=C(C)CC(OC(=O)C=C(C)C)C21)CC(O)C3(C)Cl (stereo not shown) | AML12 mouse hepatocytes | lipid accumulation, Nile Red staining | – | maximum safe concentration, 24 h, added: palmitic acid/oleic acid | – | maximum inhibition | 35.5 ± 2.64%
Cc1ccc(-n2cc(CSc3nc4ccccc4n3Cc3cn(-c4ccc(C)cc4)nn3)nn2)cc1 | Caco-2 | MTT | – | 250 ppm | – | viability | 10.7%
Cc1nn(C(C)C)c(C)c1CN1CCCC(CCC(=O)NCc2ccccc2F)C1 (stereo not shown) | Trypanosoma cruzi | reporter mRNA translation, inhibitor, item: capped polyadenylated Renilla luciferase mRNA | cell-free extract | concentration not given | baseline: positive over negative control | translation activity | 95.8% and 95.5% and 94.2% and 102%
C=CC(=O)N1[C@H](c2ccc3c(c2)OCO3)c2[nH]c3ccccc3c2C[C@@H]1C(=O)NC1CC1 | rat DRG neurons | – | – | 0.3704 µM, 48 h, added: vincristine 40 nM | – | neuron degeneration | 46.3% and 42.1%
CCCCCCC(=O)[O][Pt]([NH2])([NH2])([Cl])([Cl])[O]C(=O)CCC(C)C1CCC2C3CCC4CC(O)CCC4(C)C3CCC12C (stereo not shown) | PC-3 | Western blot | – | concentration not given, 48 h | baseline: untreated | γ-H2AX protein level | increased
COC(=O)c1cc(NC2=NC(=O)C(=Cc3ccc(N(C)C)cc3)S2)ccc1OC(C)=O | MCF7 | GC-MS, item: Uracil | – | 1 µM | baseline: DMSO | metabolite level | 0.5 fold change
O=C(C[Se]C(=O)c1ccc2ccccc2n1)Nc1cccc(C(F)(F)F)c1 | NCI60 CNS cancer panel | five-dose screen | – | – | – | GI50 | 1.84 µM
COC(=O)c1cc(NC2=NC(=O)C(=Cc3ccc(C)cc3)S2)ccc1OC(C)=O | MCF7 | GC-MS, item: Spermine | – | 1 µM | baseline: DMSO | metabolite level | 0.03 fold change
CCc1c(C)c2ccc(OC(C)C)c(C)c2oc1=O | PC-3 | cell growth or viability, MTT | – | 250 µg/mL | – | viability | 2.8%
O=S(=O)(C1CC2OC1C(c1ccc(O)cc1)=C2c1ccc(O)cc1)N1CCCc2ccccc21 (stereo not shown) | MCF7 3xERE-luc, steroid-deprived | ERE luciferase reporter, agonist | – | – | baseline: vehicle | Emax | 0.4%
CCC(CC)n1c(Cc2cccs2)nc2cc(C(=O)NC(CC(=O)O)CC(C)C)ccc21 (stereo not shown) | H9c2 | – | – | concentration not given, 48 h, added: ISO and MCM | – | LDH release | decreased
COc1cccc(OC)c1-c1cc(C(=O)NC2(C(=O)O)C3CC4CC(C3)CC2C4)nn1-c1ccc(C(=O)N(C)CCOCCOCCN(C)C(=O)[C@H](CCCCNC(=O)[C@H](CC(C)C)NC(=O)C2OC2C(=O)O)NC(=O)CN2CCN(CC(=O)[O-])CCN(CC(=O)[O-])CCN(CC(=O)[O-])CC2)cc1C(C)C.[177Lu+3] (mixture of isomers) | HT-29 | – | – | concentration not given, 30 min | baseline: added activity | surface-bound fraction | 0.68 ± 0.05%
COCCCCCNc1nc(NCCCCCCN(C)C)c2cc(NC(=O)/C=C/CN(C)C)ccc2n1 | MCF7 | CellTiter-Glo | – | 25 µM, 72 h, unit not given | baseline: DMSO-treated cells | viability | 0.962 and 0.996 and 0.913
Cc1ncsc1-c1ccc(C(C)NC(=O)C2CC(O)CN2C(=O)C(NC(=O)CCCCCCCCCCN2CCCC(Nc3ncc(Cl)c(Nc4ccccc4S(=O)(=O)C(C)C)n3)C2)C(C)(C)C)cc1 (stereo not shown) | 22Rv1 | RNA-seq, item: ZNF274 mRNA | – | concentration not given | baseline: DMSO | log2 fold change | -1.37
CCCCN1C(=O)c2cccc3c(NCCCCCCN4CCOCC4)ccc(c23)C1=O | BHK-21 | confocal colocalization | – | 0.2 µM, added: Mito-Tracker Red 0.3 µM | – | Pearson's coefficient | 0.67 ± 0.02
CCN(CC)CC(=O)Nc1cccc(-n2cc(-c3ccc4ccc(-c5cn(-c6cccc(NC(=O)CN(CC)CC)c6)nn5)cc4c3)nn2)c1 | RCC4 | PCR angiogenesis array, item: FLT1 | – | 5 x IC50, 2 h, normoxia | baseline: untreated | fold regulation | 1.33
Cc1cc(NC2CCN(C)CC2)ccc1-c1cc2c(N3CCC[C@H](C(=O)N[C@H](C)c4ccccc4)C3)ncnc2[nH]1 | KARPAS-299 | cell growth or viability, MTT | – | 0.0016 µg/mL, 72 h | – | inhibition | 6.97%
C=CC(=O)N1CCCC(n2c(=O)c3ncccc3n(Cc3ccc(Oc4ccccc4)cc3)c2=O)C1 (stereo not shown) | Rec1 | item: GCLC | – | concentration not given | baseline: untreated | log2 fold change | 0.333

Excerpt of the above:
SMILES | target or system | assay | system | setting | how to read | endpoint | value
C=CC(=O)N1[C@H](c2ccc3c(c2)OCO3)c2[nH]c3ccccc3c2C[C@@H]1C(=O)NC1CC1 | rat DRG neurons | – | – | 0.3704 µM, 48 h, added: vincristine 40 nM | – | neuron degeneration | 46.3% and 42.1%
CCCCCCC(=O)[O][Pt]([NH2])([NH2])([Cl])([Cl])[O]C(=O)CCC(C)C1CCC2C3CCC4CC(O)CCC4(C)C3CCC12C (stereo not shown) | PC-3 | Western blot | – | concentration not given, 48 h | baseline: untreated | γ-H2AX protein level | increased
COC(=O)c1cc(NC2=NC(=O)C(=Cc3ccc(N(C)C)cc3)S2)ccc1OC(C)=O | MCF7 | GC-MS, item: Uracil | – | 1 µM | baseline: DMSO | metabolite level | 0.5 fold change
O=C(C[Se]C(=O)c1ccc2ccccc2n1)Nc1cccc(C(F)(F)F)c1 | NCI60 CNS cancer panel | five-dose screen | – | – | – | GI50 | 1.84 µM
COC(=O)c1cc(NC2=NC(=O)C(=Cc3ccc(C)cc3)S2)ccc1OC(C)=O | MCF7 | GC-MS, item: Spermine | – | 1 µM | baseline: DMSO | metabolite level | 0.03 fold change
CCc1c(C)c2ccc(OC(C)C)c(C)c2oc1=O | PC-3 | cell growth or viability, MTT | – | 250 µg/mL | – | viability | 2.8%
